Assay results from different studies.
Compare with care: the assays were run in different laboratories. ± marks the error that the study gave.
Technique: steady-state kinetics
B1: PDE4A (Homo sapiens, UniProt P27815); chain NIPRFGVKTDQEELLAQELENLNKWGLNIFCVSDYAGGRSLTCIMYMIFQERDLLKKFRIPVDTMVTYMLTLEDHYHADVAYHNSLHAADVLQSTHVLLATPALDAVFTDLEILAALFAAAIHDVDHPGVSNQFLINTNSELALMYNDESVLENHHLAVGFKLLQEDNCDIFQNLSKRQRQSLRKMVIDMVLATDMSKHMTLLADLKTMVETKKVTSSGVLLLDNYSDRIQVLRNMVHCADLSNPTKPLELYRQWTDRIMAEFFQQGDRERERGMEISPMCDKHTASVEKSQVGFIDYIVHPLWETWADLVHPDAQEILDTLEDNRDWYYSAI
B2: protein E15D (Rhodopseudomonas palustris, UniProt Q6N3R9); chain MSNVRVLATDLAFPDGPVVMPDGSVVLVEIRAQQLTRVWPDGRKEVVAKVPGGPNGAALGPDGKMYICNNGGFGWFPSRGTMMPGAPAPHEYIGGSIQRVDLQSGEVETLFDKCGEHPLKGPNDLVFDKHGGLWFTDLGKRRARDMDVGAAYYIKPGMTEITEQVFGTLPLNGIGLSPDEATMYAAETPTGRLWAFDLSGPGEVKPRDVIYRGEKGKPICGLGGYQMFDSLAVEASGNVCVATLVSGCISVIAPDGTLVEQVPTGDRVTTNIAFGGPDLKTAYITLSGKGELIAMDWSRPGLPLNFLNK
B3: nitrilase Y142F (Rhodococcus rhodochrous, UniProt A4LA85); chain MVEYTNTFKVAAVQAQPVWFDAAKTVDKTVSIIAEAARNGCELVAFPEVFIPGYPYHIWVDSPLAGMAKFAVRYHENSLTMDSPHVQRLLDAARDHNIAVVVGISERDGGSLYMTQLIIDADGQLVARRRKLKPTHVERSVFGEGNGSDISVYDMPFARLGALNCWEHFQTLTKYAMYSMHEQVHVASWPGMSLYQPEVPAFGVDAQLTATRMYALEGQTFVVCTTQVVTPEAHEFFCENEEQRKLIGRGGGFARIIGPDGRDLATPLAEDEEGILYADIDLSAITLAKQAADPVGHYSRPDVLSLNFNQRRTTPVNTPLSTIHATHTFVPQFGALDGVRELNGADEQRALPSTHSDETDRATASI
B4: enzyme E217L/L163H/N249W (Thermobifida fusca, UniProt Q47RK4); chain MTDVYILDAVRTPFGRYGGALSGIRPDDLAAHVLRALAERSPGLDPAAVDDVFFGDANGAGEDNRNVARMAALLAGWPTSVPGVTLNRLCGSGMESVIAANRAIAVGDASLAVAGGVESMSRAPWVLPKPAQGFPTGHETLYSTTLGWRMVNPAMPEQWTVSHGESTEQVAATYGISRAEQDAFALRSHERAARAWAEGVFDAEITQIPGAELERDLSIRETSAEKLAALKPAFRPDGTITAGNASPLWDGAAALLIGDAAAAERVGREPLARIVSRGVAAVDPDVFGIGPVQAAEIALRRAGIGWDDLSVVELNEAFAAQSLACLKLWPDLDPEIVNPNGGAIAIGHPLGASGARIVGTLAHELHRRGGGWGLAAICIGVGQGLAVVLHR
B5: enzyme D392A (Acetivibrio thermocellus, UniProt A3DJ38); chain MKLTIPELSLVVLIGSSGSGKSTFAKKHFKPTEVISSDFCRGLVSDDENDQTVTGAAFDVLHYIVSKRLQLGKLTVVDATNVQESARKPLIEIAKDYHCFPVAVVFNLPEKVCQERNKNRTDRQVEEYVIRKHTQQLKKSIKGLQREGFRYVYILNSPEEVEEVVFERQPLWNNKKDEHGPFDIIGDIHGCYDELKMLLEKLGYLIEEVEGGVGSGKYRVTHPEGRKVLFLGDLVDRGPKITEVLKLVMGMVKSGIALCVPGNHDVKLLRKLNGRDVQITHGLDRTLEQLAKEPQEFIEEVKAFIDGLVSHYVLDDGKLVVAHAGMKEEFQGRGSGKVREFALYGETTGETDEYGLPVRYDWASDYRGKALVVYGHTPQAEVLKVNNTINIATGCVFGGKLTAYRYPEREIVDVKALKTYYEPAKPFLPKEDMAERFEARTDNDILDINDVLGKKIITTRLMSSITIHEENSIAALEVMSRFAADPHWLIYLPPTMSPCETSKKEGMLEHPIEAFEYFRTRGVGKVVCEQKHMGSRAVVIVCKDSQVAEKRFGVLDGTAGICYTRTGRHFFDDMQLEAELIDRVRKVLDKSGFWGDFNTDWVCLDCELMPWSAKAQKLLEEQYSAVGISGRVVLDEAVKLLKQASLNKTVSFDVSRQTSGKNADINELLQRFTERSEMMQKYVEAYRKYCWPVNSIDDLKLAPFHILATEGKVHSDKNHIWHMDTIAKYCTQDDSLIMATNHILVDVTDAESVDKGIKWWEDLTASGGEGMVVKPYDFIVKNGRELLQPAVKCRGREYLRIIYGPEYTMDENIERLRNRAVGKKRSLALREFSLGMEALERFVRNEPLYRVHECVFGVLALESEPVDPRL
B6: tmcA (Escherichia coli, UniProt P76562); chain MAELTALHTLTAQMKREGIRRLLVLSGEEGWCFEHTLKLRDALPGDWLWISPRPDAENHCSPSALQTLLGREFRHAVFDARHGFDAAAFAALSGTLKAGSWLVLLLPVWEEWENQPDADSLRWSDCPDPIATPHFVQHLKRVLTADNEAILWRQNQPFSLAHFTPRTDWYPATGAPQPEQQQLLKQLMTMPPGVAAVTAARGRGKSALAGQLISRIAGRAIVTAPAKASTDVLAQFAGEKFRFIAPDALLASDEQADWLVVDEAAAIPAPLLHQLVSRFPRTLLTTTVQGYEGTGRGFLLKFCARFPHLHRFELQQPIRWAQGCPLEKMVSEALVFDDENFTHTPQGNIVISAFEQTLWQSDPETPLKVYQLLSGAHYRTSPLDLRRMMDAPGQHFLQAAGENEIAGALWLVDEGGLSQQLSQAVWAGFRRPRGNLVAQSLAAHGNNPLAATLRGRRVSRIAVHPARQREGTGRQLIAGALQYTQDLDYLSVSFGYTGELWRFWQRCGFVLVRMGNHREASSGCYTAMALLPMSDAGKQLAEREHYRLRRDAQALAQWNGETLPVDPLNDAVLSDDDWLELAGFAFAHRPLLTSLGCLLRLLQTSELALPALRGRLQKNASDAQLCTTLKLSGRKMLLVRQREEAAQALFALNDVRTERLRDRITQWQLFH

`Cj1427c (Campylobacter jejuni, UniProt Q0P8I7)` has a kcat of 0.64 ± 0.02 s⁻¹ (Nc1nc2c(ncn2[C@@H]2O[C@H](COP(=O)(O)OP(=O)(O)O[C@H]3O[C@H]([C@H](O)CO)[C@@H](O)[C@H](O)[C@@H]3O)[C@@H](O)[C@H]2O)c(=O)[nH]1; pH 7.4, 30 °C, apparent).
The kcat of `B1 (PDE4A)` is reported as 3.7 s⁻¹ (Nc1ncnc2c1ncn2[C@@H]1O[C@@H]2COP(=O)(O)O[C@H]2[C@H]1O; pH 7.5, 21 °C).
`B2 (protein E15D)` gave a kcat of greater than 62 s⁻¹ (O=C1CCc2ccccc2O1; pH 8, NaCl 150 mM, no saturation, with: CaCl2 1 mM).
`B3 (nitrilase Y142F)` gave a kcat of 0.0001767 ± 1.67e-06 s⁻¹ (N#CCCCC#N; pH 7.5, 25 °C).
With `azu N36H/Q28H/Q34H (Pseudomonas aeruginosa)` the kcat was 0.00983 s⁻¹ (O=NO; pH 6.35).
The kcat of `B4 (enzyme E217L/L163H/N249W)` is reported as 0.00983 ± 0.00233 s⁻¹ (CC(C)(COP(=O)(O)OP(=O)(O)OC[C@H]1O[C@@H](n2cnc3c(N)ncnc32)[C@H](O)[C@@H]1OP(=O)(O)O)[C@@H](O)C(=O)NCCC(=O)NCCSC(=O)CCC(=O)O; pH 7.4, 37 °C).
With `B5 (enzyme D392A)` the kcat was 1.77 ± 0.075 s⁻¹ (Nc1ncnc2c1ncn2[C@@H]1O[C@H](CO)[C@H]2OP(=O)(O)O[C@H]21; pH 7.5, 45 °C).
The kcat of `OXA-48 (Klebsiella pneumoniae, UniProt Q6XEC0)` is reported as 2.8 ± 0.1 s⁻¹ (CC(=O)OCC1=C(C(=O)O)N2C(=O)[C@@H](NC(=O)Cc3cccs3)[C@H]2SC1; pH 7.2, 30 °C).
For `CYP2C19 (Homo sapiens, UniProt P33261)`, the kcat was 0.467 ± 0.0833 s⁻¹ (CCOC(=O)C1(c2ccccc2)CCN(C)CC1; pH 7.4).
With `B6 (tmcA)` the kcat was 0.00807 s⁻¹ (Nc1ncnc2c1ncn2[C@@H]1O[C@H](COP(=O)(O)OP(=O)(O)OP(=O)(O)O)[C@@H](O)[C@H]1O; pH 7.8, 10 mM KCl, no tRNA, no acetyl-CoA, with: MgCl2 10 mM).

Repeated from above:
With `B6 (tmcA)` the kcat was 0.00807 s⁻¹ (Nc1ncnc2c1ncn2[C@@H]1O[C@H](COP(=O)(O)OP(=O)(O)OP(=O)(O)O)[C@@H](O)[C@H]1O; pH 7.8, 10 mM KCl, no tRNA, no acetyl-CoA, with: MgCl2 10 mM).
